Measured values pooled from the literature.
Lines come from different studies, so protocols differ. “And” joins repeats or separate records; there may be more than shown. Numbers after ± are the reported error.

Structure (SMILES) = Cn1cncc1-c1c(F)cncc1NC(=O)c1c(N)nn2cc(F)cnc12; test = erythroid progenitor production, inhibitor, PK/PD model; test system = human; endpoint = Emax; result = 59.8%
Structure (SMILES) = CO[C@H]1CC[C@H](N2C(=O)CNc3ncc(-c4ccc(C(C)(C)O)nc4)nc32)CC1; test = flow cytometry; test system = stimulated B cells, human, blood; conditions = 45 mg single dose, 24 h, median; scale = reference: baseline; endpoint = pS6RP change from baseline; result = -32.9%
Structure (SMILES) = C[C@H](CS)C(=O)N1CCC[C@H]1C(=O)O; test system = mouse, unilateral ureteral obstruction, right kidney (control); conditions = dose not given; endpoint = fibrosis area; result = 0.6% and 1.07% and 0.91% and 0.66% and 1.16% and 0.82%
Structure (SMILES) = N#Cc1ccc2c(c1)[C@H]1CCCN(C(=O)c3ccc4[nH]cnc4c3)[C@H]1C2; test = refers to: cortisol; test system = human, Phase II trial; conditions = oral, 80 mg once daily, HPA axis, mean; endpoint = change from baseline; result = -55 nmol/L
Structure (SMILES) = Cn1cc(Nc2nccc(-c3ccc4c(c3)CN(C3COC3)CC[C@H]4NC(=O)c3cn(C(C)(C)C)nn3)n2)cn1; test = refers to: pyrimidine ribonucleotides interconversion; test system = splenic B cells, mice; conditions = 30 mg/kg, IgD-activated in vivo; scale = reference: vehicle, direction not given; endpoint = pathway activation z-score; result = 0
Structure (SMILES) = Oc1ccccc1-c1n[nH]cc1-c1ccnc2ccccc12; tested on = SHA3 (Candida albicans); test = kinase binding, MIB/MS competition; test system = Candida albicans lysate; conditions = 1 µM; scale = reference: DMSO; endpoint = log2 fold change; result = -0.02
Structure (SMILES) = COC[C@@H](c1ccc(C(F)(F)F)cc1)N1CCN(C2(C)CCN(C(=O)c3c(C)ncnc3C)CC2)C[C@@H]1C; test system = HIV-1 infected patients, plasma; conditions = 10 mg, week 24, with optimized background regimen; scale = reference: baseline; endpoint = change in HIV-1 RNA; result = -2.21 log10 copies/mL
Structure (SMILES) = O=C1Nc2cc3[nH]nc(-c4ccncc4)c3cc2CN1Cc1ccccc1; test = RECIST v1.1; test system = human, relapsed or refractory advanced solid tumours; conditions = intravenous, 3.6 mg/kg, pooled schedules; endpoint = progressive disease, best response; result = 67%
Structure (SMILES) = C[C@H]1C[C@H]2CSC(N)=N[C@@]2(c2nc(NC(=O)c3ccc(OC(F)F)cn3)cs2)CO1; test = refers to: total Aβ; test system = healthy adults, plasma; conditions = 160 mg single dose, 4 h post-dose; scale = reference: placebo; endpoint = percent change from baseline; result = -45.8%
Structure (SMILES) = COC(=O)c1c(C)[nH]c(C)c1C(=O)c1ccccc1Cc1ccccc1; test = high-content microscopy; test system = DRG neurons, rat; conditions = dose not given, unit not given, with: DAMGO 3; scale = reference: no DAMGO; endpoint = serotonin-induced response; result = 0.343 and 0.353 and 0.521 and 0.41
Structure (SMILES) = CC(C)C[C@H](NC(=O)C[C@H](O)[C@H](CC(C)C)NC(=O)[C@H](Cc1c[nH]cn1)NC(=O)CNC(=O)[C@@H](NC(=O)[C@H](C)NC(=O)[C@H](Cc1c[nH]c2ccccc12)NC(=O)[C@H](CCC(N)=O)NC(=O)[C@@H](Cc1ccccc1)NC(=O)COCCOCCNC(=O)CCC(C(=O)O)N1CCN(CC(=O)O)CCN(CC(=O)O)CCN(CC(=O)O)CC1)C(C)C)C(N)=O (some centres unmarked) [lutetium-177 labelled]; test system = BALB/c nu/nu mice, carcass; conditions = 100 pmol, 1 h, with: PA 300 µg; endpoint = tissue uptake; result = 2.8 ± 0.8 %ID
Structure (SMILES) = O=C(O)c1ccc(-n2cc(CNc3cc(Br)cc(C(F)(F)F)c3)c(-c3ccc(F)c(F)c3)n2)cc1; test system = Caenorhabditis elegans, S. aureus infected; conditions = 4 µg/mL, 5 days; endpoint = survival; result = ~85%
Structure (SMILES) = COc1ccc(-c2cncc(N[C@@H](C)c3cccc(NC(=O)c4cncc(C)c4)c3)n2)cc1OC; test = refers to: rno-miR-93-5p; test system = rat SU5416/hypoxia model, lung; conditions = dose not given; scale = reference: SU5416/hypoxia vehicle; endpoint = fold change; result = 1.49
Structure (SMILES) = CCN(Cc1nc2c(N)nc3cc(-c4cc[nH]n4)ccc3c2[nH]1)C(C)=O; test = Luminex, refers to: G-CSF; test system = cancer patients, serum; conditions = 2000 µg monotherapy, first 24 h; scale = reference: baseline; endpoint = fold change; result = 21
Structure (SMILES) = N#Cc1ccn2c(-c3ccncc3)c(-c3ccc(F)cc3)nc2c1; test = kinase binding, competitor, MIB/MS competition, refers to: RCK2; test system = Candida albicans cell lysate; conditions = 100 nM; scale = reference: DMSO; endpoint = log2 fold change; result = -0.233
Structure (SMILES) = CCCn1cc(C)c2c(=O)[nH]c(-c3cc(S(=O)(=O)N4CCN(CC)CC4)ccc3OCC)nc21; test system = supine; conditions = median; endpoint = time to maximum DBP change; result = 1.47 h
Structure (SMILES) = C[C@@H](NC(=O)N1C(=O)[C@H](Cc2ccnc(N)c2)[C@H]1C(=O)O)C1CCCCC1; test system = human; conditions = iv infusion, 0.3 mg/kg/h, 24 h, unit not given; scale = reference: baseline; endpoint = PT Emax; result = 1.08
Structure (SMILES) = OC(CCN1CCCCC1)(c1ccccc1)C1CC2C=CC1C2 (centres unmarked); test = resting-state EEG; test system = healthy elderly humans; conditions = oral, 2 mg, eyes open, LS mean; scale = reference: baseline; endpoint = change, Delta EEG power, in O2-Pz; result = 35.1%
Structure (SMILES) = FC(F)(F)C(Cl)Br (centres unmarked); tested on = human iPSC-derived cardiomyocytes; test = MyBP-C/MYH ratio, plate-normalised SD score; conditions = concentration not given, primary screen; scale = direction not given; endpoint = activity score; result = 3.3
Structure (SMILES) = N#Cc1ccc(C(c2ccc(C#N)cc2)n2cncn2)cc1; test = ELISA; test system = human patients, tumour homogenate; conditions = 2.5 mg daily; endpoint = estradiol concentration; result = 857 ± 81.8 pg/mL
Structure (SMILES) = CN(C)c1ccc(C(=C2C=CC(=[N+](C)C)C=C2)c2ccc(N(C)C)cc2)cc1; tested on = MYBPC3 iPSC cardiomyocytes; test = plate-normalised; conditions = concentration not given, 24 h, hit retest; endpoint = MyBP-C level; result = 1.2%
Structure (SMILES) = O=C(O)CNC(=O)Cc1ccccc1; test system = ventricular cardiomyocytes, C57BL/6 mouse; conditions = dose not given, 0.016 s; endpoint = sarcomere length; result = 1.72 µm
Structure (SMILES) = Cn1cc(-c2ccc(-c3cncc(Cl)c3N3CCC4(CCNC4=O)CC3)cc2)cn1; tested on = COLO 205; test = gene expression, microarray, refers to: ANKRD37 mRNA; conditions = concentration not given, 6 h; scale = reference: untreated cells; endpoint = log2 fold change; result = 3.72

Some of these lines once more:
Structure (SMILES) = CC(C)C[C@H](NC(=O)C[C@H](O)[C@H](CC(C)C)NC(=O)[C@H](Cc1c[nH]cn1)NC(=O)CNC(=O)[C@@H](NC(=O)[C@H](C)NC(=O)[C@H](Cc1c[nH]c2ccccc12)NC(=O)[C@H](CCC(N)=O)NC(=O)[C@@H](Cc1ccccc1)NC(=O)COCCOCCNC(=O)CCC(C(=O)O)N1CCN(CC(=O)O)CCN(CC(=O)O)CCN(CC(=O)O)CC1)C(C)C)C(N)=O (some centres unmarked) [lutetium-177 labelled]; test system = BALB/c nu/nu mice, carcass; conditions = 100 pmol, 1 h, with: PA 300 µg; endpoint = tissue uptake; result = 2.8 ± 0.8 %ID
Structure (SMILES) = Cn1cc(Nc2nccc(-c3ccc4c(c3)CN(C3COC3)CC[C@H]4NC(=O)c3cn(C(C)(C)C)nn3)n2)cn1; test = refers to: pyrimidine ribonucleotides interconversion; test system = splenic B cells, mice; conditions = 30 mg/kg, IgD-activated in vivo; scale = reference: vehicle, direction not given; endpoint = pathway activation z-score; result = 0
Structure (SMILES) = COC[C@@H](c1ccc(C(F)(F)F)cc1)N1CCN(C2(C)CCN(C(=O)c3c(C)ncnc3C)CC2)C[C@@H]1C; test system = HIV-1 infected patients, plasma; conditions = 10 mg, week 24, with optimized background regimen; scale = reference: baseline; endpoint = change in HIV-1 RNA; result = -2.21 log10 copies/mL
